Results pooled from the literature.
A part holds a random share of what one study measured. Positions count from the first letter of the parent shown.

Sample 1 — method: protein-binding microarray; form: double-stranded DNA, one strand shown; matrix: in vitro; tested at: 940 nM top; notes: 60-bp whole probe; with: salmon DNA 0.4 mg/ml; baseline: random background probes; reading: higher = stronger binding; all sequences stand within: GCCTAGCAC … GTCTTGATTCGCTTGACGCTGCTG
Target: Interferon regulatory factor 5, full length, phosphomimetic (IRF5, Homo sapiens, UniProt Q13568-2, residues 1-514, S451D/S453D/S456D/S462D)
Oligonucleotide | fitted relative affinity [z-score]
GACGAACTGAGAGTGGAGACGTGCTAG | -0.42
TTGGATATCGGGACTGGATTAGTGCTA | -0.148
TCATGTGTCAGGTTTACTACTGTGCTA | -0.0296
TTAGGTTCCCCTTTCCTTTAGTGCTAG | 0.85
TCATTGTTCTCTCTGGCACTGTGCTAG | 0.533
TCACACCTCTAGACTCTAACTGTGCTA | 0.607
GACGGTCTCGGCCTCGGGACGTGCTAG | 1.07
TCACCTCTGGGATCCCAGACTGTGCTA | -0.153
GACGGACTGTGTATCGGGACGTGCTAG | -0.149
TCATACCTGTATATCTTACTGTGCTAG | 0.274
GACGGACTGAGTTTCGAGACGTGCTAG | 3.18
GACGGTCTCCAACTGCTGACGTGCTAG | -0.387
GGACTCACCTAGTTTCATTCCGTGCTA | 2.84
GACGGTTTCGGGGTTCGGGACGTGCTA | 7.12
GCAGGTCTGGACCCAGACTCGTGCTAG | -0.477
GACGAACTTGGGACTGGAGACGTGCTA | -0.416
GACGGTCTCGGTTTCGGAACGTGCTAG | 7.13
TCATGCTTTCCTTTATGACTGTGCTAG | 1.37
TTAGGGTTCCTTTCCCTTTAGTGCTAG | 0.0757
TTAGGTCTCGGACTGGGTTGGTGCTAG | 0.769
GACGGTCTCGGTTTCGGTACGTGCTAG | 8.79
TTAGGATTGCTACTGCTTTAGTGCTAG | -0.54
GCCGGTATCGGGACTGGGGACGTGCTA | 3.81
GACGGTATCGGTAGCGGGACGTGCTAG | 7.66

Sample 2 — method: DHFR PCA, deep sequencing; matrix: yeast; with: (+)-ABA 58 µM; baseline: wild-type fitted maximum; reading: higher = stronger binding
Target: ABI1, truncated, D143A, DHFR fusion (Arabidopsis thaliana)
Notes: methotrexate growth selection, single substitutions
Starting sequence: PYL1, truncated, DHFR fusion (Arabidopsis thaliana); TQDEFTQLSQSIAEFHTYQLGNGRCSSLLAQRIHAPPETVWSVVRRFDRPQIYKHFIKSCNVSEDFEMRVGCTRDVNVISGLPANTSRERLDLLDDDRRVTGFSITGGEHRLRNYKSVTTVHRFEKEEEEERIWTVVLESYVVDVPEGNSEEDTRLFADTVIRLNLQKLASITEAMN
Change | relative binding score [%]
F47L | -9.01
A170M | 64.8
F56I | -7.81
M68A | 74.7
H110P | 16.2
T39P | 57.8
N149D | 35.4
R163I | 33.7
R123E | 92.1
T173D | 0.643
S171V | 81.4
E128F | 93.2
V76S | 10.4
G71F | 12.8
C60E | 4.13
R24H | 73.1
D96M | 29.7

Sample 3 — method: RNA Bind-n-Seq; form: RNA; matrix: in vitro; tested at: not given; notes: RNA with constant flanks, ends assumed; baseline: input RNA pool; reading: higher = stronger binding
Target: RING finger protein unkempt homolog, zinc fingers 1-6, GST-SBP tag (UNK, Homo sapiens, UniProt Q9C0B0, residues 30-357)
All sequences stand within: GGGAGUUCUACAGUCCGACGAUC … CAACAGAGGAUUGAGCAUCA
Residues (chain): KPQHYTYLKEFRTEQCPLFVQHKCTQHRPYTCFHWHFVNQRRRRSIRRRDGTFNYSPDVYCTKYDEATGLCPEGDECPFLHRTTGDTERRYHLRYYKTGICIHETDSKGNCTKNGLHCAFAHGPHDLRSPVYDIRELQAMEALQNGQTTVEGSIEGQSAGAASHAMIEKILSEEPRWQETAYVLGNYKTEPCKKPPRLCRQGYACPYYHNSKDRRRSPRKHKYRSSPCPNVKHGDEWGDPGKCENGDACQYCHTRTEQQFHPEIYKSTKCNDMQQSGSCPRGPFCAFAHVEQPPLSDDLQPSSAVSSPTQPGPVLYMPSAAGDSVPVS
Oligonucleotide | bound/input enrichment [ratio]
GGGAAUCCUGCUUGUUCGGCCCAGUUGCAGCAUGUCUCGCCACCCAUUUUUCCAGCUCAUUCCGCAAGUGUGUCAACUCCAUUGUUGUCCUCAAUGGAAAGUGUCAUAAAUCCAAAUAUA | 0.252
CUCAAGCUACCAAAAAGAAAGUGGCAAUAUAUUGACUCAGGAUCUCAAAGCUGGGUGUUUCCGCAUUACUGUGUAAAGACUUGAAGGGACAGAAGUGAAGAAAAUAAGCUGCAAUUUUGU | 0.0839
GAAGCAAGAGCUUUUGCAGAAAAGAAUGGUUUGUCAUUCAUUGAAACUUCGGCCCCCGACUCUACAAAUGUAGAAGCUGCUUUUCAGACAAUUUUAACAGAGAUUUACCGCAUUGUUUCU | 0.291
AAUGAAGUGGUUCAAUCUGGAAGAAAGACUAAGCCCAUUAUUCCAGAGAUGUGUUUUAUUUACCGUGAAGAAAAUGUAGACUAUUCCCCCCCAAAUGCCUUCCUUGAAGAAGAUGGAACA | 0.205
CCAUGGGGAUGCUCUGGGGAGUGGCUGGACACUCAGCAUUGCUUCAUUUAUGACUUUGACAACCGACCGGCUUCUGGGGGUUUUUGUUUCUGUUUUUUUAAUUUAAUGAUAUUAAAACUU | 0.222
GGGUUAUAUCAAUAUAAGAACAUAUGCCAACAGGUAAACAUUAAAUCUUUAGAAGAUGUUGUCCGGGCAUAUUUGAAAUUAGCAGAGGAAAAAACAGAAGCUGCUAAAGAAGAGUCCCAA | 0.576
CAGCUGCGAGGCCGCGGGUGCCCGCCGGGUGUGCUGAGCCGCCGCCAUGGGCAUCAAGUUUUCCGAAGUUAUUAAACCUUUCUGUGCAGUUCUACCAGAAAUUCAGAAGCCUGAAAGGAA | 0.101
UAUAGCACUGAAUAAAUGAUGCAAGUUGUCAAUGGAUGAGUGAUCAACUAAUAGCUCUGCCCGUAAUUGAUUUAUUUUUCUUCAAUAAAGUUGCAUAAACCAAUGAGUUAGCUGCCUGGA | 1.04

Sample 4 — method: RNA Bind-n-Seq; form: RNA; matrix: in vitro; tested at: 365 nM; baseline: no-protein control; reading: higher = stronger binding
Target: RNA binding protein fox-1 homolog 2, RRM domain, GST-SBP tag (RBFOX2, Homo sapiens, UniProt O43251-10, residues 100-194)
Notes: natural RNA segment, single round, ends assumed
All sequences stand within: GGGAGUUCUACAGUCCGACGAUC … UGGAAUUCUCGGGUGCCAA
Residues (chain): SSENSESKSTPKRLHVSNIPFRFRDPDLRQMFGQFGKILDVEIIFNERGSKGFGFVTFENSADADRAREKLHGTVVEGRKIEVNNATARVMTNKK
Oligonucleotide | RBNS enrichment (R)
CUGGUUUGCACUCAGUGUAGAAGAGCUCAGACGGGUGCCAGAUUAGCACUGAGCGGUAAAGGGUCUCUUCAUCUCUGGACAUGAUGGGUGUUGUGUAUGACUCUGUUGCC | 0.756
UGACAUGGGGAGCAAUGCUAAGCAAGCUAAGUGUAAAAGAAAAGUGACAGAAUAAUUUUGGAAGAGGAAGCCUCAUCAAAAGCUCACACAAAAUAGAGCUUCCCAUGGUG | 0.502
AUAUAACUUCAUCAUGAAUAUGCUGUGAUCCUCGUUUGAUGGAAUUACGCAAGGAAAGAACGGGAAGAAAGGAUAUUUUGCUGCAAGAUUAAGUUACAGUUCUCAGUGGA | 0.705
UAGAGCUUCUCAGAAACCCUAAUAGGCAAGUAUUAUCUUGAUUUUGCAGAUGUGAAAGCUAAGACCAUGAACCAUGUGAGAUUCCAAACCAAAUAAGCUUGCUGCCAUGG | 0.464
CUGUUAAUAUGGACUUGGACUAGAUAACCUUAAAUUGGCCUAUUCCUUCAAUUAAUAAAAUAUUUUUGCCAUAGUAUGUGACUCUACAUAACAUACUGAAACUAUUUAUA | 0.292
UCAGUUACCCUGAACAUGGGGAGUGCAUCACGAUAGGGUGUGGCUGACCUCCAUUGCUUACCUGCCUGAGUAGCCAGCUGCAUCCAUCUCUCAAAGAUACCUAGCCAGGC | 0.641
CUCAGGAGCCUCAACUGUUUAUUUUGUAGCUGAUGGCACAGUUGAGCCCAAAGCAGGUUCUAAUAAGAAUGCACCAAAGCCUUCAGCCUUAGCAAAGACAACUGCUCCUG | 1.53
UGUGUAACCAUUUGAUAUCUGAGCAAUAGUGUCUCAGUUUAAUAAAAGCUUCCUAUAGUACAUUGGUAUGGAUUAAAUACAUAAAAUAUUCUAUUAGACUUCAUGCUGUA | 0.557
CUUUUGUUCUCAGCUUCUGCCAUCUGUGACUACUGAUAUCCUGGAUGGACACCUUGCUGGACUUGAAGUCCGCUAGUUGGACUUUGCCUAGGGCUUUCAUCUUGCCUUGC | 0.508
GGUGUGUAUUUAGUCACCAACCGGCCUCCAUUGUGUGUAUCAGCAAACACCAGACUCGCUCAGAGGUGAUGUCCAUCUUUGAGAAACAUGAAGCUUUGCUUUGUGGAUUG | 0.229
UGCUCCAACUGCCUGUCUCCAGGUCCCUGGGUGAAUGUGGCCAUCCAGCAGAGAUGCUAGUGGGGCUUCCGCUGUGUCAUCAGACCUCCAGAGCACCUGAUUGGCCCAAA | 0.195
AGAGCUCCCUUCCCACCUCUCUGCCCAGCCUUGUUACCUCACUUCUGCUCUGGCCAUGGCUGUGAAGGGCCCAGCCAGCUCCCUGUUUUGAUGUUCUGUGCAACAGCUCC | 0.491

Sample 5 — target: CCNB1, cyclin fold, Cln2 fusion (human); method: yeast growth competition, sequencing; matrix: yeast; notes: strong parent motif; baseline: not given; reading: higher = stronger binding
Starting sequence: E2F1 docking peptide (human); PPVKRRLDLETDH; partner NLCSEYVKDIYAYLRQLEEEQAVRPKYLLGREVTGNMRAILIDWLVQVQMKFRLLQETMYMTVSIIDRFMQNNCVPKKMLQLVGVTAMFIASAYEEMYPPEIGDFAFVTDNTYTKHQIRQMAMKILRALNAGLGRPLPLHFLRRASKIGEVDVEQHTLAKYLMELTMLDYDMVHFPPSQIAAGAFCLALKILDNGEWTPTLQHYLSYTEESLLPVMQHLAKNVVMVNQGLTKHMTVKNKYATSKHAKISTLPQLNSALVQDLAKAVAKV
Change | normalised enrichment score
D12V | 1.24
H13L | 1.68
E10Y | 0.316
R6L | 0.372
D8W | 0.635
K4C | 3.01
L7V | 0.0615
R6F | -0.189
P1L | 2.47
T11P | 2.76
K4D | 1.04
E10P | 0.789
H13C | 1.67
P1I | 0.847
L7T | 0.868
K4W | 0.272
D8I | 1.71
T11K | 0.533

Mixed results
Substance | target | assay | test system | conditions | scale | quantity | result
PhoQ, residues 284 288 289 292 302 303 SVHLDV | PhoP, residues 12 14 15 18 19 LQHIR (Escherichia coli, UniProt P23836) | Sort-seq, item: YFP reporter | E. coli | PhoQ-PhoP variant library, with: 10 µM Mg2+ | baseline: high Mg2+ state, higher = stronger signaling | fold induction | 76.4

A few entries again (sample 4):
Oligonucleotide | RBNS enrichment (R)
UAGAGCUUCUCAGAAACCCUAAUAGGCAAGUAUUAUCUUGAUUUUGCAGAUGUGAAAGCUAAGACCAUGAACCAUGUGAGAUUCCAAACCAAAUAAGCUUGCUGCCAUGG | 0.464
CUGUUAAUAUGGACUUGGACUAGAUAACCUUAAAUUGGCCUAUUCCUUCAAUUAAUAAAAUAUUUUUGCCAUAGUAUGUGACUCUACAUAACAUACUGAAACUAUUUAUA | 0.292
UCAGUUACCCUGAACAUGGGGAGUGCAUCACGAUAGGGUGUGGCUGACCUCCAUUGCUUACCUGCCUGAGUAGCCAGCUGCAUCCAUCUCUCAAAGAUACCUAGCCAGGC | 0.641
CUCAGGAGCCUCAACUGUUUAUUUUGUAGCUGAUGGCACAGUUGAGCCCAAAGCAGGUUCUAAUAAGAAUGCACCAAAGCCUUCAGCCUUAGCAAAGACAACUGCUCCUG | 1.53
UGUGUAACCAUUUGAUAUCUGAGCAAUAGUGUCUCAGUUUAAUAAAAGCUUCCUAUAGUACAUUGGUAUGGAUUAAAUACAUAAAAUAUUCUAUUAGACUUCAUGCUGUA | 0.557
CUUUUGUUCUCAGCUUCUGCCAUCUGUGACUACUGAUAUCCUGGAUGGACACCUUGCUGGACUUGAAGUCCGCUAGUUGGACUUUGCCUAGGGCUUUCAUCUUGCCUUGC | 0.508
GGUGUGUAUUUAGUCACCAACCGGCCUCCAUUGUGUGUAUCAGCAAACACCAGACUCGCUCAGAGGUGAUGUCCAUCUUUGAGAAACAUGAAGCUUUGCUUUGUGGAUUG | 0.229
UGCUCCAACUGCCUGUCUCCAGGUCCCUGGGUGAAUGUGGCCAUCCAGCAGAGAUGCUAGUGGGGCUUCCGCUGUGUCAUCAGACCUCCAGAGCACCUGAUUGGCCCAAA | 0.195
